Measurements collected from several papers.
Lines come from different studies, so protocols differ.

Compound = Cc1cc(Nc2ccc(S(F)(F)(F)(F)F)cc2)n2nc(C(C)(F)F)nc2n1; test system = Plasmodium vivax malaria patients; conditions = oral, 600 mg; measurement = adverse event Nausea; value = 0%
Compound = FC(F)(F)c1ccc(CNc2ccc(Cc3c[nH]c4ncc(Cl)cc34)cn2)cn1; assay = item: Diarrhoea; test system = patients with advanced solid tumours; conditions = oral, dose not given, grade 3 and 4, possibly related to drug; measurement = adverse event incidence; value = 4%
Compound = CC[C@H](C)CCCCC(=O)N[C@@H](CCN)C(=O)N[C@H](C(=O)N[C@@H](CCN)C(=O)N[C@H]1CCNC(=O)[C@H]([C@@H](C)O)NC(=O)[C@H](CCN)NC(=O)[C@H](CCN)NC(=O)[C@H](CC(C)C)NC(=O)[C@@H](Cc2ccccc2)NC(=O)[C@H](CCN)NC1=O)[C@@H](C)O; assay = item: nervous system disorders; test system = mild renal insufficiency patients; conditions = IV, 0.75 mg/kg; measurement = adverse event incidence; value = 71.4%
Compound = NCCONC(=O)[C@@H]1CC[C@@H]2CN1C(=O)N2OS(=O)(=O)O; assay = item: upper respiratory tract infection; test system = healthy Chinese men; conditions = intravenous, 2 g, treatment-emergent; measurement = adverse event incidence; value = 0%
Compound = CC(=O)O[C@H]1C(=O)[C@@]2(C)[C@H]([C@H](OC(=O)c3ccccc3)[C@]3(O)C[C@H](OC(=O)[C@H](O)[C@@H](NC(=O)c4ccccc4)c4ccccc4)C(C)=C1C3(C)C)[C@]1(OC(C)=O)CO[C@@H]1C[C@@H]2O; assay = item: aspartate aminotransferase increased; test system = patients with advanced solid tumours; conditions = intravenous, dose not given, grade 1 and 2, possibly related to drug; measurement = adverse event incidence; value = 30%
Compound = CC(C)n1c(Nc2cccnc2)nc2cnc(Nc3ccc(N4CCN(C)CC4)cc3)nc21; assay = item: Hypertriglyceridaemia; test system = healthy male subjects; conditions = oral, 150 mg, together with: rifampin; measurement = adverse event incidence; value = 0%
Compound = O=C1CCc2ccc(OCCCCN3CCN(c4cccc(Cl)c4Cl)CC3)cc2N1; assay = item: Constipation; test system = genotyped patients, CYP2D6 intermediate metabolizers; conditions = dose not given, long-acting oral or depot; measurement = adverse event incidence; value = 10%
Compound = Cc1c(Cl)c(C)[n+]([O-])c(Cl)c1-c1noc(-c2cc(O)c(O)c([N+](=O)[O-])c2)n1; assay = item: Hyperhidrosis; test system = healthy Chinese subjects; conditions = oral, 25 mg, 4 days; measurement = adverse drug reaction incidence; value = 6.7%

Excerpt of the above:
Compound = CC[C@H](C)CCCCC(=O)N[C@@H](CCN)C(=O)N[C@H](C(=O)N[C@@H](CCN)C(=O)N[C@H]1CCNC(=O)[C@H]([C@@H](C)O)NC(=O)[C@H](CCN)NC(=O)[C@H](CCN)NC(=O)[C@H](CC(C)C)NC(=O)[C@@H](Cc2ccccc2)NC(=O)[C@H](CCN)NC1=O)[C@@H](C)O; assay = item: nervous system disorders; test system = mild renal insufficiency patients; conditions = IV, 0.75 mg/kg; measurement = adverse event incidence; value = 71.4%
